Measurements gathered from unrelated publications.
Protocols differ between the studies behind these lines. Numbers after ± are the reported error.
B1: Cacna1c 1647-1777 (Mus musculus, UniProt Q01815); sequence looked up; chain NALSLQAGLRTLHDIGPEIRRAISGDLTAEEELDKAMKEAVSAASEDDIFRRAGGLFGNHVTYYQSDSRGNFPQTFATQRPLHINKTGNNQADTESPSHEKLVDSTFTPSSYSSTGSNANINNANNTALGR
B2: CX3CL1 25-100 (Homo sapiens, UniProt P78423); sequence looked up; chain QHHGVTKCNITCSKMTSKIPVALLIHYQQNQASCGKRAIILETRQHRLFCADPKEQWVKDAMQHLDRQAAALTRNG
B3: ITGAV/ITGB8 ectodomain, soluble, clasped; chain 1 FNLDVDSPAEYSGPEGSYFGFAVDFFVPSASSRMFLLVGAPKANTTQPGIVEGGQVLKCDWSSTRRCQPIEFDATGNRDYAKDDPLEFKSHQWFGASVRSKQDKILACAPLYHWRTEMKQEREPVGTCFLQDGTKTVEYAPCRSQDIDADGQGFCQGGFSIDFTKADRVLLGGPGSFYWQGQLISDQVAEIVSKYDPNVYSIKYNNQLATRTAQAIFDDSYLGYSVAVGDFNGDGIDDFVSGVPRAARTLGMVYIYDGKNMSSLYNFTGEQMAAYFGFSVAATDINGDDYADVFIGAPLFMDRGSDGKLQEVGQVSVSLQRASGDFQTTKLNGFEVFARFGSAIAPLGDLDQDGFNDIAIAAPYGGEDKKGIVYIFNGRSTGLNAVPSQILEGQWAARSMPPSFGYSMKGATDIDKNGYPDLIVGAFGVDRAILYRARPVITVNAGLEVYPSILNQDNKTCSLPGTALKVSCFNVRFCLKADGKGVLPRKLNFQVELLLDKLKQKGAIRRALFLYSRSPSHSKNMTISRGGLMQCEELIAYLRDESEFRDKLTPITIFMEYRLDYRTAADTTGLQPILNQFTPANISRQAHILLDCGEDNVCKPKLEVSVDSDQKKIYIGDDNPLTLIVKAQNQGEGAYEAELIVSIPLQADFIGVVRNNEALARLSCAFKTENQTRQVVCDLGNPMKAGTQLLAGLRFSVHQQSEMDTSVKFDLQIQSSNLFDKVSPVVSHKVDLAVLAAVEIRGVSSPDHVFLPIPNWEHKENPETEEDVGPVVQHIYELRNNGPSSFSKAMLHLQWPYKYNNNTLLYILHYDIDGPMNCTSDMEINPLRIKISSLQTTEKNDTVAGQGERDHLITKRDLALSEGDIHTLGCGVAQCLKIVCQVGRLDRGKSAILYVKSLLWTETFMNKENQNHSYSLKSSASFNVIEFPYKNLPIEDITNSTLVTTNVTWGIQPAPMPV; chain 2 EDNRCASSNAASCARCLALGPECGWCVQEDFISGGSRSERCDIVSNLISKGCSVDSIEYPSVHVIIPTENEINTQVTPGEVSIQLRPGAEANFMLKVHPLKKYPVDLYYLVDVSASMHNNIEKLNSVGNDLSRKMAFFSRDFRLGFGSYVDKTVSPYISIHPERIHNQCSDYNLDCMPPHGYIHVLSLTENITEFEKAVHRQKISGNIDTPEGGFDAMLQAAVCESHIGWRKEAKRLLLVMTDQTSHLALDSKLAGIVVPNDGNCHLKNNVYVKSTTMEHPSLGQLSEKLIDNNINVIFAVQGKQFHWYKDLLPLLPGTIAGEIESKAANLNNLVVEAYQKLISEVKVQVENQVQGIYFNITAICPDGSRKPGMEGCRNVTSNDEVLFNVTVTMKKCDVTGGKNYAIIKPIGFNETAKIHIHRNCSCQCEDNRGPKGKCVDETFLDSKCFQCDENKCHFDEDQFSSESCKSHKDQPVCSGRGVCVCGKCSCHKIKLGKVYGKYCEKDDFSCPYHHGNLCAGHGECEAGRCQCFSGWEGDRCQCPSAAAQHCVNSKGQVCSGRGTCVCGRCECTDPRSIGRFCEHCPTCYTACKENWNCMQCLHPHNLSQAILDQCKTSCALMEQQHYVDQTSECFSSPSYLR
UniProt Q99062, sequence (whole entry, looked up): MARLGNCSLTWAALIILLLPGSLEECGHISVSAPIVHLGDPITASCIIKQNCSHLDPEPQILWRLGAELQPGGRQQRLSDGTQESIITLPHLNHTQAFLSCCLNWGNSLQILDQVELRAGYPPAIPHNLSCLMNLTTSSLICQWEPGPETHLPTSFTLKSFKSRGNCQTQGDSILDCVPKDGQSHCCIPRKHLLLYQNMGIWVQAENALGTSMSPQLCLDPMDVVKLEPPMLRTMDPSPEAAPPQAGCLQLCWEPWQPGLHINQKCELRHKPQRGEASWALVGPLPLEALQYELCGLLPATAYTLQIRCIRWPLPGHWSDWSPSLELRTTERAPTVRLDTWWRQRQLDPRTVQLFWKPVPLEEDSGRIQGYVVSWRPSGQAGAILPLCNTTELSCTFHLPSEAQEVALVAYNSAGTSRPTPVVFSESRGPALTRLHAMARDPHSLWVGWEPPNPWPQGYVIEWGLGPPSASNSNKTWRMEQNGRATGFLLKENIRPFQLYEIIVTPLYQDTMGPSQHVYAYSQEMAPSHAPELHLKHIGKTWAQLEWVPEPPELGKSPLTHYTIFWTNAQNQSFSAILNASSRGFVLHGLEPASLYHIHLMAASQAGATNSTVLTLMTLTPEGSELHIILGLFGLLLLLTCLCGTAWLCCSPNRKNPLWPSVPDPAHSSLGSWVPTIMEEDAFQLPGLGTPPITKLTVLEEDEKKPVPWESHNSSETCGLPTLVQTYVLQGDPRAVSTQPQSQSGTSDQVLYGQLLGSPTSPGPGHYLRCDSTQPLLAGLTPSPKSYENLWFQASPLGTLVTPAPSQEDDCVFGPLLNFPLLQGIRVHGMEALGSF
UniProt Q03718, sequence (whole entry, looked up): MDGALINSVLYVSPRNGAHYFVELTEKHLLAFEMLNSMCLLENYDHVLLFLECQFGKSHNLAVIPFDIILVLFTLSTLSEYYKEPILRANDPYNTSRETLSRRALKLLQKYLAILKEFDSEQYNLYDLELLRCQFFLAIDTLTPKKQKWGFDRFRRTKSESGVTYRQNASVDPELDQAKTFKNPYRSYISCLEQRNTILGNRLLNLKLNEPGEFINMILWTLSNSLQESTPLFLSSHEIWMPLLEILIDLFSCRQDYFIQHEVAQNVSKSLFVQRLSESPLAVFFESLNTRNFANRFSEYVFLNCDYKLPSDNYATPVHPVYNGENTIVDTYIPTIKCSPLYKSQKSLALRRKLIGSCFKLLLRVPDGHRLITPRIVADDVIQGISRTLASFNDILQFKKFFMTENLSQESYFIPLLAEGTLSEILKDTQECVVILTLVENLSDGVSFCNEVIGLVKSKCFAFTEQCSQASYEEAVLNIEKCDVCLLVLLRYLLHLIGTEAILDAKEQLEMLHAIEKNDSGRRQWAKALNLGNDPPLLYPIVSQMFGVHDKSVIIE
UniProt P32833, sequence (whole entry, looked up): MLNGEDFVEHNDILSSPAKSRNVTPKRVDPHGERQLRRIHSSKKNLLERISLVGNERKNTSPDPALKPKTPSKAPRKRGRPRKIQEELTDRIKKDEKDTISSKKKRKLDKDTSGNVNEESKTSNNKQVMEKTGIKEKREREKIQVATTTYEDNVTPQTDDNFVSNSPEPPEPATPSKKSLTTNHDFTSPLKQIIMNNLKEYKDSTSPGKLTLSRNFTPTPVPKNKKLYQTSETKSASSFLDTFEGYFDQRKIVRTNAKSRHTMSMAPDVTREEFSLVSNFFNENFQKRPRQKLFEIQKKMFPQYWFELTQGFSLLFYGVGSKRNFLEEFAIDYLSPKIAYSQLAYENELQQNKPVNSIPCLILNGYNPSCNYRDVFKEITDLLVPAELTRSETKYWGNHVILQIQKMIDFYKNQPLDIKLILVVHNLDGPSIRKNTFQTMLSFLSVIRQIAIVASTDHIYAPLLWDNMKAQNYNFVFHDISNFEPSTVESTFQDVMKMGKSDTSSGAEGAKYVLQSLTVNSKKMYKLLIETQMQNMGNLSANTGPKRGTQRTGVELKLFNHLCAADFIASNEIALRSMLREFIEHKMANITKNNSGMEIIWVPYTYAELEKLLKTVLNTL
UniProt Q86YC2, sequence (whole entry, unmodified, looked up): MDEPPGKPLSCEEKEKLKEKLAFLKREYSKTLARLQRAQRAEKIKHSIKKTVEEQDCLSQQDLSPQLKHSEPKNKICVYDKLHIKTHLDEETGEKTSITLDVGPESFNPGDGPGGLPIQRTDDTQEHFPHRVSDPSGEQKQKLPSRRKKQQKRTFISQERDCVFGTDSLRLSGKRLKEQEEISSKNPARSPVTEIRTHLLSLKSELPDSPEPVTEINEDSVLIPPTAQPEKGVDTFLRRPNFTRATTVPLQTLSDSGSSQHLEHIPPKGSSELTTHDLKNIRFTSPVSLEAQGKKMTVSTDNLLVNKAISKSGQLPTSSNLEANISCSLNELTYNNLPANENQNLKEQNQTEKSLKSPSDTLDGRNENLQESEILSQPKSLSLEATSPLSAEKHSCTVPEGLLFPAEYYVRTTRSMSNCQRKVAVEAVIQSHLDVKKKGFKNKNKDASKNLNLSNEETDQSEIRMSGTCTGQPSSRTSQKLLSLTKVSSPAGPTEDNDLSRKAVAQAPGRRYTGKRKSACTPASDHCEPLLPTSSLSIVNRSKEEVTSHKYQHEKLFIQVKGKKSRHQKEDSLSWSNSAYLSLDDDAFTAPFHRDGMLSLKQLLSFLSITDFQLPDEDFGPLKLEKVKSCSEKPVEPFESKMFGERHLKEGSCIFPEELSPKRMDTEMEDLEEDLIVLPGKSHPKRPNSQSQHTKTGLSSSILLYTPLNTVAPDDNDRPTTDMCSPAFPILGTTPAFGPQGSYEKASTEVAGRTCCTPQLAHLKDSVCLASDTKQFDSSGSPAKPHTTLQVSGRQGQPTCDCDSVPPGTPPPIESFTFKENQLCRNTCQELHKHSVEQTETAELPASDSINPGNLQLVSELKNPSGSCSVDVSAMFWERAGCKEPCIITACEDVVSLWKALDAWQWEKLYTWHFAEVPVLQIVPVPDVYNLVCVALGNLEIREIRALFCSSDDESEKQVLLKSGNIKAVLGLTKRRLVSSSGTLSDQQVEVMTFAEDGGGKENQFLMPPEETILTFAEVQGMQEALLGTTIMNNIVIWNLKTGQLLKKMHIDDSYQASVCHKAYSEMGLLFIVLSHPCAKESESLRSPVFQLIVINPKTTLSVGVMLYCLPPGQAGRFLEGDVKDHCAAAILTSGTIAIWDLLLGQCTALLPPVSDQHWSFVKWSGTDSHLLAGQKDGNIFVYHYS
UniProt P08237, sequence (whole entry, looked up): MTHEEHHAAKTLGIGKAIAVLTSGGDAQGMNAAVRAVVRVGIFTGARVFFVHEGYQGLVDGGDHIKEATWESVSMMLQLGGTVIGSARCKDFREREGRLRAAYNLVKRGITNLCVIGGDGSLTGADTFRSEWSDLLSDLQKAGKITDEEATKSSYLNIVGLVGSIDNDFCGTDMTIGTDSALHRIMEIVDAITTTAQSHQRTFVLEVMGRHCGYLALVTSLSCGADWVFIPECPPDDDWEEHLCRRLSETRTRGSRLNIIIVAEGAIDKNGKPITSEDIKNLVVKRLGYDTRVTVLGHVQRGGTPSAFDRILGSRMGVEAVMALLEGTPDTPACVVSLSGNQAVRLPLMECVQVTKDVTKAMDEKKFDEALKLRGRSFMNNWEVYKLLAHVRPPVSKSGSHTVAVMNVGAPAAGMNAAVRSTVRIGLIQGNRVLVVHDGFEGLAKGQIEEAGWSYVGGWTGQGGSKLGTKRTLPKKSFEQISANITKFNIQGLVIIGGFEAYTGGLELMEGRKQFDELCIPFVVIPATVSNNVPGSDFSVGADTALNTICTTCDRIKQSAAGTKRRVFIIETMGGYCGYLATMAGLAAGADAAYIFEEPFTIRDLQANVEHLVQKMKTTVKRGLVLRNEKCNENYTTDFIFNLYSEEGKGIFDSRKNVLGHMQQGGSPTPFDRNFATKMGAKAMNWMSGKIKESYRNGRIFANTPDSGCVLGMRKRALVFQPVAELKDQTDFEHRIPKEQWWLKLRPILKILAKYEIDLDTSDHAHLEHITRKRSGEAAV
UniProt P32241, sequence (whole entry, looked up): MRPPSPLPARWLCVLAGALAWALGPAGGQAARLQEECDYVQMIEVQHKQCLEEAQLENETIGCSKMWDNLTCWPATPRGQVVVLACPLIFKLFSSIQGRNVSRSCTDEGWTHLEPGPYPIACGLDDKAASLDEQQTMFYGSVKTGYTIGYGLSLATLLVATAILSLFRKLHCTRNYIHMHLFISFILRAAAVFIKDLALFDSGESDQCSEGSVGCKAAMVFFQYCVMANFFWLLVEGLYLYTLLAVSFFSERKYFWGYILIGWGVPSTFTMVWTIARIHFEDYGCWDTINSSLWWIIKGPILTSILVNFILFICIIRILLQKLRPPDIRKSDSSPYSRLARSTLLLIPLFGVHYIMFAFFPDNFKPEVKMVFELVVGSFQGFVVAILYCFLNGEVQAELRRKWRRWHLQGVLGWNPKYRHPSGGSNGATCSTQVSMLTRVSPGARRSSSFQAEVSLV
UniProt P54791, sequence (whole entry, looked up): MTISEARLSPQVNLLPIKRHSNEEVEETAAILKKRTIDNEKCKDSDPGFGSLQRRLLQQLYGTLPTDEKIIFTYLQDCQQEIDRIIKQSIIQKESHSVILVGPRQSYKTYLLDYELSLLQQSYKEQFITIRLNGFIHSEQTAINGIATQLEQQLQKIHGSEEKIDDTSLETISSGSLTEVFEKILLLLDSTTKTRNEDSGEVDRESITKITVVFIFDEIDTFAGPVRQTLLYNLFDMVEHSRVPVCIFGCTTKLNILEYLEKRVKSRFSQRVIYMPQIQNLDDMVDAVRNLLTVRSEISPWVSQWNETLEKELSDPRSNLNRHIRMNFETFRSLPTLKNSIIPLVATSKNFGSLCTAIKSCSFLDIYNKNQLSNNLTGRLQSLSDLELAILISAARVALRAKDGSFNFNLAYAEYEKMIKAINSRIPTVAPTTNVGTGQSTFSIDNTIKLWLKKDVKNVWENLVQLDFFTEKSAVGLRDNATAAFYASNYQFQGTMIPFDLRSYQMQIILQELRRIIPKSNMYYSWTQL

| Substance | target or system | test | test system | conditions | how to read | measurement | result |
| --- | --- | --- | --- | --- | --- | --- | --- |
| colistin | Acinetobacter baumannii | broth microdilution | clinical isolate RKI-No_523/16 |  |  | MIC | ≤ 500 ng/mL |
| B1 (Cacna1c 1647-1777) | Jph2 1-440 S165D (Mus musculus, UniProt Q9ET78) | ITC |  |  |  | Kd | 5870 nM |
| pegfilgrastim, PEGylated, about 39 kDa (Homo sapiens, UniProt P09919-2) | CSF3R (Homo sapiens, UniProt Q99062) | STAT3-driven luciferase reporter induction, agonist | 293-CSF3R | 1.5 h, 50 °C, heat-degraded sample, diluted in DMEM |  | EC50 | 1.79 ng/mL |
| ALB (Homo sapiens, UniProt P02768) | PRDM14 (Homo sapiens, UniProt Q9GZV8) | cross-linking MS |  | together with: DSSO |  | cross-linked residues | K198 to K443 |
| DYNLRB1/DYNLL1/DYNLT1/DYNC1LI2/DYNC1I2/DYNC1H1 dynein-1 complex (Homo sapiens) | BICD2/KASH5 chimera BicD2 CC, KASH5 LIC-BD 1-98, HaloTag | pull-down |  |  |  | Ka | > 1.6e+06 M⁻¹ |
| SERPINF2 (Homo sapiens, UniProt P08697) | UBTFL1 (Homo sapiens, UniProt P0CB47) | cross-linking MS |  | together with: DSSO |  | cross-linked residues | K468 to K81 |
| FGB dimer (Homo sapiens) | CDH2 extracellular domain 1-551 (Homo sapiens) | SPR |  | Langmuir fit, together with: CaCl2 |  | kon | 655000 M⁻¹ s⁻¹ |
| FGA (Homo sapiens, UniProt P02671) | GTF3C6 (Homo sapiens, UniProt Q969F1) | cross-linking MS |  | together with: DSSO |  | cross-linked residues | K476 to K94 |
| BRCA1 coiled-coil domain I1405V (Homo sapiens) | PALB2 1-56 (Homo sapiens, UniProt Q86YC2) | ITC |  |  |  | ΔH | -2.4 ± 0.4 kcal/mol |
| PSPHGTRRHLPSPP (SOS1 proline-rich peptide, 1264-1277) | GRB2 1-58 (Homo sapiens, UniProt P62993) | NMR titration | peptide |  |  | chemical shift perturbation | 0.14 ppm |
| BIRC5 (Homo sapiens, UniProt O15392) | FGA (Homo sapiens, UniProt P02671) | cross-linking MS |  | together with: DSSO |  | cross-linked residues | K112 to K202 |
| LGQSMDESGLPQLTSYDCEVNAPIQGSRNLLQGEELLRALDQVN (HIF1A CTAD (Homo sapiens, UniProt Q16665)) | EP300 CH1 (Homo sapiens) | FP competition | peptide |  |  | Ki | 280 nM |
| PFKM (Homo sapiens, UniProt P08237) | PFKP (Homo sapiens, UniProt Q01813) | cross-linking MS | cells | together with: iqPIR |  | cross-linked residues | K727 to K736 |
| KNG1 high molecular weight kininogen (Homo sapiens) | prekallikrein zymogen (Homo sapiens) | clotting time | FXI-deficient plasma | 670 nM, without 3E8 |  | APTT | 231 s |
| GSGAGIATEV | human MAGI1-3/6 PDZ construct (MBP fusion) | automated holdup | peptide, crude extract | concentration not given, corrected by standard peak, unit not given | baseline: biotin control resin, higher = stronger binding | binding intensity | -0.00355 |
| PDE4D3/GFP (Homo sapiens) | AKAP6 (Homo sapiens, UniProt Q13023-1) | co-IP | HEK293 | without stimulation, not purified | baseline: mAKAP precipitated, higher = more PDE4D3 bound | relative binding | 2.85 |
| B2 (CX3CL1 25-100) | CX3CR1 (Homo sapiens, UniProt P49238-4) | AlphaScreen or HTRF |  |  |  | Ki | 0.15 nM |
| DYNC1H1 (Homo sapiens, UniProt Q14204) | NUMA1 1-705 (Homo sapiens, UniProt Q14980) | time-lapse imaging | Flp-In T-REx mitotic | CDK1 inhibition, together with: RO3306 |  | cortical dynein loss half-time | 13.7 min |
| SERPINC1 (Homo sapiens, UniProt P01008) | RBM19 (Homo sapiens, UniProt Q9Y4C8) | cross-linking MS |  | together with: DSSO |  | cross-linked residues | K171 to K382 |
| NSE5 (Saccharomyces cerevisiae, UniProt Q03718) | NSE3 (Saccharomyces cerevisiae, UniProt Q05541) | cross-linking MS |  | hits only |  | interaction screen | cross-linked |
| B3 | TGFB3 fragment, aminocaproic acid, FITC label | fluorescence polarisation |  | together with: CaCl2 1 mM |  | EC50 | 14.7 nM |
| ORC2 (Saccharomyces cerevisiae, UniProt P32833) | ORC4 (Saccharomyces cerevisiae, UniProt P54791) | cross-linking MS |  | hits only |  | interaction screen | cross-linked |
| FGB (Homo sapiens, UniProt P02675) | RRP15 (Homo sapiens, UniProt Q9Y3B9) | cross-linking MS |  | together with: DSSO |  | cross-linked residues | K163 to K126 |
| ADCYAP1 PACAP (Homo sapiens) | VIPR1 (Homo sapiens, UniProt P32241) | cAMP accumulation, antagonist | Cos7 | VPAC1, together with: VIP |  | pA2 | 933 nM |
| SLC4A1 (Homo sapiens, UniProt P02730) | HBB (Homo sapiens, UniProt P68871) | cross-linking MS |  | together with: DSSO or DMTMM |  | cross-linked residues | D23 to K9 |
| SUPT4H1/SUPT5H, Cy3-labelled Spy tag (Homo sapiens) (sequence not shown) | RNA polymerase II elongation complex, P-TEFb phosphorylated (Sus scrofa) | single-molecule fluorescence colocalisation |  | phosphorylated |  | residence time | 182 s |
| GSGAGSETKM | human MAGI1-3/6 PDZ construct (MBP fusion) | automated holdup | peptide, crude extract | concentration not given, uncorrected, unit not given | baseline: biotin control resin, higher = stronger binding | binding intensity | -0.076 |

For quick reference, copied from above:
| Substance | target or system | test | test system | conditions | how to read | measurement | result |
| --- | --- | --- | --- | --- | --- | --- | --- |
| SERPINC1 (Homo sapiens, UniProt P01008) | RBM19 (Homo sapiens, UniProt Q9Y4C8) | cross-linking MS |  | together with: DSSO |  | cross-linked residues | K171 to K382 |
| NSE5 (Saccharomyces cerevisiae, UniProt Q03718) | NSE3 (Saccharomyces cerevisiae, UniProt Q05541) | cross-linking MS |  | hits only |  | interaction screen | cross-linked |
| B3 | TGFB3 fragment, aminocaproic acid, FITC label | fluorescence polarisation |  | together with: CaCl2 1 mM |  | EC50 | 14.7 nM |
| ORC2 (Saccharomyces cerevisiae, UniProt P32833) | ORC4 (Saccharomyces cerevisiae, UniProt P54791) | cross-linking MS |  | hits only |  | interaction screen | cross-linked |
